{"data": "Published values collected from several papers", "note": "Compare with care: the assays were run in different laboratories."}
{"Structure (SMILES)": "COc1cc(OC)cc(C2=C3C(C)=C(I)C(C)=[N+]3[B-](F)(F)n3c(/C=C/c4c[nH]c5ccc([N+](=O)[O-])cc45)c(I)c(C)c32)c1", "test": "DPBF absorbance decrease", "test system": "DMSO", "scale": "baseline: methylene blue", "singlet oxygen quantum yield": 0.55}
{"Structure (SMILES)": "CN1CCC(C)(C)c2cc3c(-c4ccc(C(=O)N5CCCCC5)s4)c4ccc(=[N+](C)C)cc-4sc3cc21", "test": "1O2 luminescence", "test system": "air-saturated methanol", "singlet oxygen quantum yield": "< 0.05"}
{"Structure (SMILES)": "CC(C)(C)c1cc(-c2ccc3cc4ccccc4nc3n2)nc(-c2ccc3cc4ccccc4nc3n2)c1.Cc1ccncc1.[Cl-].[Cl-].[Ru+2].c1ccc2cc3nc4c5cccnc5c5ncccc5c4nc3cc2c1", "test": "1O2 phosphorescence", "test system": "acetonitrile", "setting": "excitation maximum 455 nm", "scale": "baseline: Ru(bpy)3(PF6)2", "singlet oxygen quantum yield": 0.14}
{"Structure (SMILES)": "COc1cc(OC)cc(C2=C3C(C)=C(I)C(/C=C/c4c[nH]c5ccccc45)=[N+]3[B-](F)(F)n3c(/C=C/c4c[nH]c5ccccc45)c(I)c(C)c32)c1", "test": "DPBF absorbance decrease", "test system": "DMSO", "scale": "baseline: methylene blue", "singlet oxygen quantum yield": 0.64}
{"Structure (SMILES)": "CCN(CC)C(=O)c1ccc(-c2c3ccc(=[N+](C)C)cc-3sc3cc4c(cc23)C(C)(C)CCN4C)s1", "test": "1O2 luminescence", "test system": "air-saturated methanol", "singlet oxygen quantum yield": "< 0.05"}
{"Structure (SMILES)": "Cc1ccncc1.[Cl-].[Cl-].[Ru+2].c1cc(-c2ccc3cccnc3n2)nc(-c2ccc3cccnc3n2)c1.c1ccc2cc3nc4c5cccnc5c5ncccc5c4nc3cc2c1", "test": "1O2 phosphorescence", "test system": "acetonitrile", "setting": "excitation 630 nm", "scale": "baseline: Ru(bpy)3(PF6)2", "singlet oxygen quantum yield": 0.77}
{"Structure (SMILES)": "CCCCCCCCC1(CCCCCCCC)c2cc(C#Cc3cc4[n+]5c(c3)-c3cccc[n+]3[Ir-3]536([n+]5ccccc5-4)[n+]4ccccc4-c4cc(-c5ccccc5)cc([n+]43)-c3cccc[n+]36)ccc2-c2ccc(C#Cc3cc4[n+]5c(c3)-c3cccc[n+]3[Ir-3]536([n+]5ccccc5-4)[n+]4ccccc4-c4cc(-c5ccccc5)cc([n+]43)-c3cccc[n+]36)cc21.F[P-](F)(F)(F)(F)F.F[P-](F)(F)(F)(F)F.F[P-](F)(F)(F)(F)F.F[P-](F)(F)(F)(F)F.F[P-](F)(F)(F)(F)F.F[P-](F)(F)(F)(F)F", "test system": "acetonitrile", "setting": "5 µM", "scale": "baseline: [Ru(bpy)3](PF6)2", "singlet oxygen quantum yield": 0.26}
{"Structure (SMILES)": "CC(C)(C)c1cc(-c2ccc3cccnc3n2)nc(-c2ccc3cccnc3n2)c1.[Cl-].[Cl-].[Ru+2].c1ccc2cc3nc4c5cccnc5c5ncccc5c4nc3cc2c1", "test": "1O2 phosphorescence", "test system": "acetonitrile", "setting": "excitation 630 nm", "scale": "baseline: Ru(bpy)3(PF6)2", "singlet oxygen quantum yield": 0.04}
{"Structure (SMILES)": "CCOC(=O)c1[nH]c(C)c(/C=C/c2c(I)c(C)c3n2[B-](F)(F)[N+]2=C(C)C(I)=C(C)C2=C3c2cc(OC)cc(OC)c2)c1C", "test": "DPBF absorbance decrease", "test system": "DMSO", "scale": "baseline: methylene blue", "singlet oxygen quantum yield": 0.65}
{"Structure (SMILES)": "CCCCCCCCC1(CCCCCCCC)c2cc(-c3cc4[n+]5c(c3)-c3cccc[n+]3[Ir-3]536([n+]5ccccc5-c5cc(-c7ccccc7)cc([n+]53)-c3cccc[n+]36)[n+]3ccccc3-4)ccc2-c2ccc(-c3cc4[n+]5c(c3)-c3cccc[n+]3[Ir-3]536([n+]5ccccc5-c5cc(-c7ccccc7)cc([n+]53)-c3cccc[n+]36)[n+]3ccccc3-4)cc21.F[P-](F)(F)(F)(F)F.F[P-](F)(F)(F)(F)F.F[P-](F)(F)(F)(F)F.F[P-](F)(F)(F)(F)F.F[P-](F)(F)(F)(F)F.F[P-](F)(F)(F)(F)F", "test system": "acetonitrile", "setting": "5 µM", "scale": "baseline: [Ru(bpy)3](PF6)2", "singlet oxygen quantum yield": 0.28}
{"Structure (SMILES)": "CCOC(=O)c1[nH]c(C)c(/C=C/C2=[N+]3C(=C(c4cc(OC)cc(OC)c4)c4c(C)c(I)c(/C=C/c5c(C)[nH]c(C(=O)OCC)c5C)n4[B-]3(F)F)C(C)=C2I)c1C", "test": "DPBF absorbance decrease", "test system": "DMSO", "scale": "baseline: methylene blue", "singlet oxygen quantum yield": 0.43}
{"Structure (SMILES)": "CCCCCCCCC1(CCCCCCCC)c2cc(-c3cc4[n+]5c(c3)-c3cccc[n+]3[Ir-3]536([c]5ccccc5-c5cc(-c7ccccc7)cc([n+]53)-c3cccc[c]36)[n+]3ccccc3-4)ccc2-c2ccc(-c3cc4[n+]5c(c3)-c3cccc[n+]3[Ir-3]536([c]5ccccc5-c5cc(-c7ccccc7)cc([n+]53)-c3cccc[c]36)[n+]3ccccc3-4)cc21.F[P-](F)(F)(F)(F)F.F[P-](F)(F)(F)(F)F", "test system": "acetonitrile", "setting": "5 µM", "scale": "baseline: [Ru(bpy)3](PF6)2", "singlet oxygen quantum yield": 0.22}
{"note": "Excerpt of the above:"}
{"Structure (SMILES)": "Cc1ccncc1.[Cl-].[Cl-].[Ru+2].c1cc(-c2ccc3cccnc3n2)nc(-c2ccc3cccnc3n2)c1.c1ccc2cc3nc4c5cccnc5c5ncccc5c4nc3cc2c1", "test": "1O2 phosphorescence", "test system": "acetonitrile", "setting": "excitation 630 nm", "scale": "baseline: Ru(bpy)3(PF6)2", "singlet oxygen quantum yield": 0.77}
{"Structure (SMILES)": "CCCCCCCCC1(CCCCCCCC)c2cc(C#Cc3cc4[n+]5c(c3)-c3cccc[n+]3[Ir-3]536([n+]5ccccc5-4)[n+]4ccccc4-c4cc(-c5ccccc5)cc([n+]43)-c3cccc[n+]36)ccc2-c2ccc(C#Cc3cc4[n+]5c(c3)-c3cccc[n+]3[Ir-3]536([n+]5ccccc5-4)[n+]4ccccc4-c4cc(-c5ccccc5)cc([n+]43)-c3cccc[n+]36)cc21.F[P-](F)(F)(F)(F)F.F[P-](F)(F)(F)(F)F.F[P-](F)(F)(F)(F)F.F[P-](F)(F)(F)(F)F.F[P-](F)(F)(F)(F)F.F[P-](F)(F)(F)(F)F", "test system": "acetonitrile", "setting": "5 µM", "scale": "baseline: [Ru(bpy)3](PF6)2", "singlet oxygen quantum yield": 0.26}
